Results of several laboratories.
Protocols differ between the studies behind these lines. ± marks the error that the study gave.

SMILES | organism | assay | test system | conditions | MIC
CC[C@H](C)[C@H](NC(=O)CNC(=O)[C@H](CCCCN)NC(=O)[C@H](C)NC(=O)[C@H](CCC(=O)O)NC(=O)[C@H](Cc1ccccc1)NC(=O)[C@H](CO)NC(=O)[C@H](CC(C)C)NC(=O)[C@@H](NC(=O)[C@H](CC(=O)O)NC(=O)[C@H](C)NC(=O)[C@@H](NC(=O)[C@@H](N)C(C)C)[C@@H](C)O)C(C)C)C(=O)N[C@@H](C)C(=O)N[C@H](C(=O)N[C@@H](CC(N)=O)C(=O)N[C@@H](Cc1c[nH]cn1)C(=O)N[C@@H](CO)C(=O)N[C@@H](C)C(=O)N[C@H]1CSSC[C@@H]2NC(=O)[C@H](C(C)C)NC(=O)CNC(=O)[C@H](CC(N)=O)NC(=O)[C@H](CCC(N)=O)NC(=O)[C@H](C)NC(=O)[C@H](CO)NC(=O)CNC(=O)CNC(=O)[C@H](CCCCN)NC(=O)[C@H](CCCCN)NC(=O)[C@H](CCCNC(=N)N)NC(=O)[C@H](CC(C)C)NC(=O)[C@H](C)NC(=O)[C@H]([C@@H](C)CC)NC(=O)[C@H](CSSC[C@@H](C(=O)N[C@@H](CCCNC(=N)N)C(=O)N[C@@H](CC(N)=O)C(=O)O)NC(=O)[C@H](C(C)C)NC2=O)NC(=O)[C@H](Cc2c[nH]cn2)NC(=O)[C@H](CC(C)C)NC(=O)[C@H](C)NC1=O)C(C)C | Salmonella typhimurium | broth microdilution | KCTC 1926 | 16 h, 37 °C | > 100 µM
CN[C@@H]1[C@H](O)[C@H](NC)[C@H]2O[C@]3(O)[C@H](O[C@@H]2[C@H]1O)O[C@H](C)C[C@@]3(O)CNCc1ccccc1 | Streptococcus pneumoniae |  | R6 drug sensitive |  | 6 µg/mL
CC[C@H](C)[C@H](NC(=O)[C@H](CCCN)NC(=O)[C@H](CC(N)=O)NC(=O)[C@H](CC(C)C)NC(=O)[C@H](Cc1ccccc1)NC(=O)[C@H](CCCN)NC(=O)[C@H](CCCNC(=N)N)NC(=O)[C@H](CC(C)C)NC(=O)[C@H](CC(C)C)NC(=O)[C@H](CCCN)NC(=O)[C@H](CCCNC(=N)N)NC(=O)[C@H](CC(C)C)NC(=O)CNC(C)=O)C(=O)N[C@@H](CCCN)C(=O)N[C@@H](CCCNC(=N)N)C(N)=O | Citrobacter freundii | bacterial growth, broth microdilution | multidrug-resistant |  | 3.12 µM
CN[C@@H]1[C@H](O)[C@H](NC)[C@H]2O[C@]3(O)[C@H](O[C@@H]2[C@H]1O)O[C@H](C)C[C@@]3(O)CNCc1ccc(F)cc1 | Streptococcus pneumoniae |  | resistant mutants, RpsE G27R |  | > 200 µg/mL
OB(O)c1cnn(-c2cccc(Cl)c2)c1 | Citrobacter freundii | bacterial growth | AmpC-overproducing clinical isolate | cefotaxime alone | 4 µg/mL
CC[C@H](C)[C@H](NC(=O)[C@H](C)NC(=O)CNC(=O)[C@@H](N)CCSC)C(=O)N[C@@H](C)C(=O)N[C@@H](CCCCN)C(=O)N[C@@H](CC(C)C)C(=O)N[C@H](C(=O)N[C@@H](C)C(=O)N[C@@H](CCCCN)C(=O)N[C@@H](Cc1ccccc1)C(=O)NCC(=O)N[C@@H](Cc1c[nH]c2ccccc12)C(=O)N1CCC[C@H]1C(=O)N[C@@H](Cc1ccccc1)C(=O)N[C@H](C(=O)N[C@@H](CCCCN)C(=O)N[C@@H](CCCCN)C(=O)N[C@@H](Cc1ccccc1)C(=O)N[C@@H](Cc1ccc(O)cc1)C(=O)N[C@@H](CCCCN)C(=O)N[C@@H](CCC(N)=O)C(=O)N[C@H](C(=O)N[C@@H](CCSC)C(=O)N[C@@H](CCC(N)=O)C(=O)N[C@@H](Cc1ccccc1)C(=O)N[C@H](C(=O)NCC(=O)N[C@@H](CCC(N)=O)C(=O)NCC(=O)N[C@@H](Cc1c[nH]c2ccccc12)C(=O)N[C@H](C(=O)N[C@H](C(=O)N[C@@H](CC(=O)O)C(=O)N[C@@H](CCC(N)=O)C(=O)N[C@H](C(=O)N[C@@H](CCC(=O)O)C(=O)N[C@@H](CCCCN)C(=O)N[C@@H](Cc1c[nH]c2ccccc12)C(=O)N[C@@H](CCCNC(=N)N)C(=O)N[C@@H](CCCCN)C(=O)N[C@@H](CCCNC(=N)N)C(=O)N[C@@H](Cc1c[nH]cn1)C(=O)O)[C@@H](C)CC)[C@@H](C)CC)[C@@H](C)O)[C@@H](C)CC)[C@@H](C)CC)[C@@H](C)CC)C(C)C | Bacillus subtilis subsp. subtilis |  | ATCC 23857 | 10 h | 6.4 ± 0.2 µM
CC[C@H](C)[C@H](NC(=O)[C@H](CCCN)NC(=O)[C@H](CC(N)=O)NC(=O)[C@H](Cc1c[nH]c2ccccc12)NC(=O)[C@H](Cc1ccccc1)NC(=O)[C@H](CCCN)NC(=O)[C@H](CCCNC(=N)N)NC(=O)[C@H](CC(C)C)NC(=O)[C@H](Cc1c[nH]c2ccccc12)NC(=O)[C@H](CCCN)NC(=O)[C@H](CCCNC(=N)N)NC(=O)[C@H](CC(C)C)NC(=O)CNC(C)=O)C(=O)N[C@@H](CCCN)C(=O)N[C@@H](CCCNC(=N)N)C(N)=O | Enterobacter aerogenes | broth microdilution | multidrug-resistant |  | 12.5 µM
C[N+]1=C2C(c3ccc(Cl)cc3)=[N+]([O-])c3ccccc3N2CCC1 | Clostridioides difficile | microbial growth | ATCC43255 |  | 16 µg/mL
COc1ccccc1NC(=O)OC1C(C)C(OC)C=COC2(C)Oc3c(C)c(O)c4c(c3C2=O)C2=NC3(CCN(CC(C)C)CC3)NC2=C(NC(=O)C(C)=CC=CC(C)C(O)C(C)C(O)C1C)C4=O (stereo not drawn) | Mycobacteroides abscessus |  | ATCC 19977 arr knockout |  | 0.015 µM
[O-][N+]1=C(c2ccccc2)C2=NCCN2c2ccccc21 | Prevotella intermedia/nigrescens |  | ATCC 25611 |  | ≤ 0.06 µg/mL
CC(C)c1ccc(Cn2ccc([C@H](C)[C@](O)(Cn3cnnn3)c3ccc(F)cc3F)n2)cc1 | Candidozyma auris | growth | 791 drug-resistant isolate | 24 h, 30 °C, ≥50% inhibition | 4 µg/mL
CCCCCCCCCCCCC(=O)O.O=C1CCCC2C3CCCN4CCCC(CN12)C34 (stereo not drawn) | Cutibacterium acnes | bacterial growth, broth dilution | ATCC 6919 |  | inactive
CC(C)C[C@H](NC(=O)[C@H](CC(C)C)NC(=O)[C@H](C)NC(=O)[C@H](NC(=O)[C@H](CO)NC(=O)[C@@H](CCCCN)NC(=O)[C@@H](CC(C)C)NC(=O)[C@@H](N)Cc1ccccc1)[C@@H](O)C(N)=O)C(=O)O | Bacillus subtilis Staphylococcus epidermidis |  | ATCC 14990 | tested as TFA salt | > 32 µg/mL
CC[C@H](C)[C@H](NC(=O)[C@H](CO)NC(=O)[C@H](CO)NC(=O)[C@H](Cc1ccccc1)NC(=O)CN)C(=O)N[C@@H](Cc1ccccc1)C(=O)N[C@@H](CCCNC(=N)N)C(N)=O | Escherichia coli |  | ATCC 8739 | 10% FBS | > 128 µM
CC1C(=NNC(=O)c2ccncc2)C(C)C(c2ccc(Cl)cc2)OC1c1ccc(Cl)cc1 (stereo not drawn) | Rhizopus |  |  | 72 to 96 h | 50 µg/mL
CC(C)C[C@H](NC(=O)CNC(=O)[C@H](C)NC(=O)[C@H](CCCNC(=N)N)NC(=O)[C@H](Cc1c[nH]cn1)NC(=O)[C@H](C)NC(=O)[C@@H](N)CC(=O)O)C(=O)N[C@@H](CCC(N)=O)C(=O)N[C@@H](Cc1ccccc1)C(=O)N1CCC[C@H]1C(=O)N[C@H](C(=O)NCC(=O)N[C@@H](CCCNC(=N)N)C(=O)N[C@H](C(=O)N[C@@H](Cc1c[nH]cn1)C(=O)N[C@@H](CCCNC(=N)N)C(=O)N[C@@H](CC(C)C)C(=O)N[C@@H](CC(C)C)C(=O)N[C@@H](CCCNC(=N)N)C(=O)N[C@@H](CCCCN)C(N)=O)C(C)C)C(C)C | Enterobacter aerogenes |  | ATCC 13048 | 18 to 20 h | > 32 µM
[O-][N+]1=C(c2ccccc2)C2=NCCCN2c2ncccc21 | Cutibacterium acnes | microbial growth |  |  | 16 µg/mL
CC[C@@H](C)[C@@H](NC(=O)[C@@H](C)NC(=O)[C@@H](CCCCN)NC(=O)[C@@H](CC(C)C)NC(=O)[C@@H](C)NC(=O)[C@H](NC(=O)[C@@H](Cc1c[nH]cn1)NC(=O)[C@@H](CC(C)C)NC(=O)[C@H](NC(=O)[C@H](NC(=O)[C@@H](CCCCN)NC(=O)[C@@H](CCCCN)NC(=O)[C@@H](C)NC(=O)[C@@H](CO)NC(=O)[C@@H](CCCCN)NC(=O)[C@@H](Cc1ccccc1)NC(=O)[C@H](NC(=O)[C@@H](CCCCN)NC(=O)[C@@H](CC(C)C)NC(=O)[C@@H](Cc1ccccc1)NC(=O)[C@@H](CO)NC(=O)[C@@H](CCCCN)NC(=O)[C@@H](Cc1c[nH]c2ccccc12)NC(=O)[C@@H](CCCCN)NC(C)=O)[C@H](C)O)[C@H](C)O)C(C)C)[C@H](C)O)C(=O)N[C@H](CO)C(=O)N[C@H](CO)C(N)=O | Acinetobacter baumannii | broth microdilution | ATCC 17978 | 24 h, 37 °C | 0.8 µM
C[C@@H](c1ccn(Cc2ccc(I)cc2)n1)[C@](O)(Cn1cnnn1)c1ccc(F)cc1F | Candidozyma auris | growth | 789 drug-resistant isolate | 24 h, 30 °C, ≥50% inhibition | 0.125 µg/mL
C=C(NC(=O)C(=C)NC(=O)c1csc(C2=NC3c4csc(n4)C4NC(=O)c5csc(n5)C(C(C)(O)C(C)O)NC(=O)C5CSC(=N5)C(=CC)NC(=O)C(C(C)O)NC(=O)c5csc(n5)C3(CC2)NC(=O)C(C)NC(=O)C(=C)NC(=O)CNC(=O)C(C(C)CC)NC2C=Cc3c(C(C)O)cc(nc3C2O)C(=O)OC4C)n1)C(N)=O (stereo not drawn) | Bacillus sp. | broth microdilution | ATCC 27859 | 18 h, 37 °C | 0.19 µg/mL
[O-][N+]1=C(c2ccc(Cl)cc2)C2=NCCCCN2c2ccccc21 | Clostridioides difficile | microbial growth | ATCC43255 |  | 4 µg/mL
COc1cc(O)c2c(=O)c3c(O)c(-c4c(C)cc5c(c4O)C(=O)C4=C(O)C[C@H](OC)[C@@H](O)[C@]4(C)O5)c(C)cc3oc2c1OC | Alternaria brassicicola | microbial growth | BCC |  | > 82.4 µM
C[C@@H](c1ccn(Cc2ccc(Cl)c(Cl)c2)n1)[C@](O)(Cn1cnnn1)c1ccc(F)cc1F | Candidozyma auris | growth | 789 drug-resistant isolate | 24 h, 30 °C, ≥50% inhibition | 4 µg/mL
O=[N+]([O-])c1ccc(C2=[N+]([O-])c3ccccc3N3CCCN=C23)cc1 | Clostridioides difficile | microbial growth | ATCC43255 |  | ≤ 0.06 µg/mL

A few entries again:
SMILES | organism | assay | test system | conditions | MIC
CC(C)c1ccc(Cn2ccc([C@H](C)[C@](O)(Cn3cnnn3)c3ccc(F)cc3F)n2)cc1 | Candidozyma auris | growth | 791 drug-resistant isolate | 24 h, 30 °C, ≥50% inhibition | 4 µg/mL
CC(C)C[C@H](NC(=O)CNC(=O)[C@H](C)NC(=O)[C@H](CCCNC(=N)N)NC(=O)[C@H](Cc1c[nH]cn1)NC(=O)[C@H](C)NC(=O)[C@@H](N)CC(=O)O)C(=O)N[C@@H](CCC(N)=O)C(=O)N[C@@H](Cc1ccccc1)C(=O)N1CCC[C@H]1C(=O)N[C@H](C(=O)NCC(=O)N[C@@H](CCCNC(=N)N)C(=O)N[C@H](C(=O)N[C@@H](Cc1c[nH]cn1)C(=O)N[C@@H](CCCNC(=N)N)C(=O)N[C@@H](CC(C)C)C(=O)N[C@@H](CC(C)C)C(=O)N[C@@H](CCCNC(=N)N)C(=O)N[C@@H](CCCCN)C(N)=O)C(C)C)C(C)C | Enterobacter aerogenes |  | ATCC 13048 | 18 to 20 h | > 32 µM
O=[N+]([O-])c1ccc(C2=[N+]([O-])c3ccccc3N3CCCN=C23)cc1 | Clostridioides difficile | microbial growth | ATCC43255 |  | ≤ 0.06 µg/mL
CC[C@H](C)[C@H](NC(=O)[C@H](CCCN)NC(=O)[C@H](CC(N)=O)NC(=O)[C@H](CC(C)C)NC(=O)[C@H](Cc1ccccc1)NC(=O)[C@H](CCCN)NC(=O)[C@H](CCCNC(=N)N)NC(=O)[C@H](CC(C)C)NC(=O)[C@H](CC(C)C)NC(=O)[C@H](CCCN)NC(=O)[C@H](CCCNC(=N)N)NC(=O)[C@H](CC(C)C)NC(=O)CNC(C)=O)C(=O)N[C@@H](CCCN)C(=O)N[C@@H](CCCNC(=N)N)C(N)=O | Citrobacter freundii | bacterial growth, broth microdilution | multidrug-resistant |  | 3.12 µM
